Measurements of several laboratories.
Each line is one published result; not all experiments were run side by side. ± gives the spread as reported.

| Compound | test | test system | conditions | half-life [h] |
| --- | --- | --- | --- | --- |
| O[C@H]1CCCN[C@@H]1CCCn1cnc2c(Cl)c(Cl)ccc21 | – | healthy human volunteers, plasma | oral, 50 mg, day 1, multiple ascending dose | 2.95 |
| CN[C@@H]1C[C@H]2O[C@@](C)([C@@H]1OC)n1c3ccccc3c3c4c(c5c6ccccc6n2c5c31)C(=O)N[C@@H]4O | – | human patients | intravenous infusion, 17 mg/m^2/24 h, 72 h infusion, cycle 1, mean, added: prednisone | 314 |
| O=c1[nH]c(Cc2ccccn2)nc2c1cnn2C1CCOCC1 | – | healthy male human, plasma | oral, 100 mg, geometric mean | 2.68 |
| Oc1ccc2ccc3c4ccccc4cc4ccc1c2c43 | UPLC-AMS | human, plasma | oral, 250 ng of [14C]-BaP | 17 ± 25.8 |
| COc1ccsc1CNCC[C@@]1(c2ccccn2)CCOC2(CCCC2)C1 | – | healthy human, normal renal function, plasma | intravenous, 1 mg single dose, arithmetic mean | 2.44 |
| Cc1ncc(OC[C@@]2(c3cccc(F)c3)C[C@H]2C(=O)Nc2ccc(F)cn2)c(C)n1 | – | human, plasma | 10 mg, mean, added: rifampin 600 mg | 10.8 |
| CC[C@@]1(O)C(=O)OCc2c1cc1n(c2=O)Cc2cc3c(CN(C)C)c(O)ccc3nc2-1 | – | human patients | oral, 2.5 mg daily, 5 days, cycle 1 day 5, geometric mean, alone | 4.55 |
| CC[C@H](C)[C@H](NC(=O)[C@H](CC(C)C)NC(=O)[C@H](Cc1c[nH]c2ccccc12)NC(=O)[C@H](CCC(N)=O)NC(=O)[C@@H](NC(=O)[C@H](Cc1ccccc1)NC(=O)[C@H](C)NC(=O)[C@H](CCCCNC(=O)COCCOCCNC(=O)COCCOCCNC(=O)CC[C@H](NC(=O)CCCCCCCCCCCCCCCCCCC(=O)O)C(=O)O)NC(=O)[C@H](CCC(N)=O)NC(=O)[C@H](C)NC(=O)[C@@H](NC(=O)[C@H](CCCCN)NC(=O)[C@H](CC(=O)O)NC(=O)[C@H](CC(C)C)NC(=O)C(C)(C)NC(=O)[C@@H](NC(=O)[C@H](CO)NC(=O)[C@H](Cc1ccc(O)cc1)NC(=O)[C@H](CC(=O)O)NC(=O)[C@H](CO)NC(=O)[C@@H](NC(=O)[C@H](Cc1ccccc1)NC(=O)[C@@H](NC(=O)CNC(=O)[C@H](CCC(=O)O)NC(=O)C(C)(C)NC(=O)[C@@H](N)Cc1ccc(O)cc1)[C@@H](C)O)[C@@H](C)O)[C@@H](C)CC)[C@@H](C)CC)C(C)C)C(=O)N[C@@H](C)C(=O)NCC(=O)NCC(=O)N1CCC[C@H]1C(=O)N[C@@H](CO)C(=O)N[C@@H](CO)C(=O)NCC(=O)N[C@@H](C)C(=O)N1CCC[C@H]1C(=O)N1CCC[C@H]1C(=O)N1CCC[C@H]1C(=O)N[C@@H](CO)C(N)=O | – | human, moderate renal impairment, plasma | subcutaneous, 5 mg single dose, geometric mean | 147 |
| COc1ccc(C[C@@H]2NC(=O)[C@H]([C@@H](C)O)NC(=O)[C@@H]3[C@@H]4CCN3C(=O)[C@@H]3Cc5cn(c6ccc(F)cc56)CCCCCCN(Cc5ccc(cc5)CCNC(=O)[C@]5(C)CCCN5C2=O)C(=O)CCC(=O)N[C@@H](C)C(=O)N[C@H](CNC(=O)CCCCC[N+](C)(C)C)C(=O)N[C@@H](Cc2cccc(c2)CNC(=O)CO4)C(=O)N3)cc1 | – | healthy fasted humans, plasma | oral, 35 mg single dose, geometric mean, added: Labrasol 1800 mg | 42.9 |
| Oc1ccc2cc3ccc4cccc5ccc(c2c1)c3c45 | UPLC-AMS | human, plasma | oral, 250 ng of [14C]-BaP | 30.3 ± 49.2 |

For quick reference, copied from above:
| Compound | test | test system | conditions | half-life [h] |
| --- | --- | --- | --- | --- |
| O[C@H]1CCCN[C@@H]1CCCn1cnc2c(Cl)c(Cl)ccc21 | – | healthy human volunteers, plasma | oral, 50 mg, day 1, multiple ascending dose | 2.95 |
